Published values gathered from unrelated publications.
A part holds a random share of what one study measured.
UniProt P10721, sequence (whole entry, unmodified, looked up): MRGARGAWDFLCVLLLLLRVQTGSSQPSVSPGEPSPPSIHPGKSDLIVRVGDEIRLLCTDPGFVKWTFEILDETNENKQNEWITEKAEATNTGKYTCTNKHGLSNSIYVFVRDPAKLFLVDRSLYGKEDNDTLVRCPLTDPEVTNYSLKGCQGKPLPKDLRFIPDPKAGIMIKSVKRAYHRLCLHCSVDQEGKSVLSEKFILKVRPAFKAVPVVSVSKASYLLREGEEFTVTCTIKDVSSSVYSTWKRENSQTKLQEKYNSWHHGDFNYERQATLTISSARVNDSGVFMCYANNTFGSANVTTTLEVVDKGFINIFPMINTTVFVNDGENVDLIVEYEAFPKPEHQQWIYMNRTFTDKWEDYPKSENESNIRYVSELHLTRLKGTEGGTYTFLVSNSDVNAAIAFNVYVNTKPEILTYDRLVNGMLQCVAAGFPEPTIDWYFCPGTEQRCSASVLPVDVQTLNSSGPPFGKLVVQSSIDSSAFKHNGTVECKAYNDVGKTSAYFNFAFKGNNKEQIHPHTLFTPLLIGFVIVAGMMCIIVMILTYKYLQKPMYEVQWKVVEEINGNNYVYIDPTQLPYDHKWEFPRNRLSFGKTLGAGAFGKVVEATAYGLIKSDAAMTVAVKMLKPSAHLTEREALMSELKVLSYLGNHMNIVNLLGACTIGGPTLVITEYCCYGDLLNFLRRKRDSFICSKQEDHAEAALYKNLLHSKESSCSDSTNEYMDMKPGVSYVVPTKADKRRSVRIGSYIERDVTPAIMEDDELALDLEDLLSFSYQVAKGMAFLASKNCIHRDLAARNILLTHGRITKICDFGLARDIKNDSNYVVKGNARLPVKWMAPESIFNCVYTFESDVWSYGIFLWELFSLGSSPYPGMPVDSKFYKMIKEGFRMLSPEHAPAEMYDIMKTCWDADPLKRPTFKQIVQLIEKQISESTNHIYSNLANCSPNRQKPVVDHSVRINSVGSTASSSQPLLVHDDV
UniProt O15264, sequence (whole entry, looked up): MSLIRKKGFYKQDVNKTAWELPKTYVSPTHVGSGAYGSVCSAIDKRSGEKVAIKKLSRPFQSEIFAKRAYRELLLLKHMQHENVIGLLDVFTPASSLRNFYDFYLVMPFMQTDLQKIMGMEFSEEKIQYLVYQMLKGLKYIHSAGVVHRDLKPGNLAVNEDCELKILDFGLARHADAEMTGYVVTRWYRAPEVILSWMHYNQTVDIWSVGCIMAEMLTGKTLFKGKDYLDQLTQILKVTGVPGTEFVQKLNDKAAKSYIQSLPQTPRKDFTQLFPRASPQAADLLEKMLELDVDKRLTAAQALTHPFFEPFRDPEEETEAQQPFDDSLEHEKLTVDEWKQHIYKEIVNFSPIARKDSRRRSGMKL
UniProt Q13976, sequence (whole entry, looked up): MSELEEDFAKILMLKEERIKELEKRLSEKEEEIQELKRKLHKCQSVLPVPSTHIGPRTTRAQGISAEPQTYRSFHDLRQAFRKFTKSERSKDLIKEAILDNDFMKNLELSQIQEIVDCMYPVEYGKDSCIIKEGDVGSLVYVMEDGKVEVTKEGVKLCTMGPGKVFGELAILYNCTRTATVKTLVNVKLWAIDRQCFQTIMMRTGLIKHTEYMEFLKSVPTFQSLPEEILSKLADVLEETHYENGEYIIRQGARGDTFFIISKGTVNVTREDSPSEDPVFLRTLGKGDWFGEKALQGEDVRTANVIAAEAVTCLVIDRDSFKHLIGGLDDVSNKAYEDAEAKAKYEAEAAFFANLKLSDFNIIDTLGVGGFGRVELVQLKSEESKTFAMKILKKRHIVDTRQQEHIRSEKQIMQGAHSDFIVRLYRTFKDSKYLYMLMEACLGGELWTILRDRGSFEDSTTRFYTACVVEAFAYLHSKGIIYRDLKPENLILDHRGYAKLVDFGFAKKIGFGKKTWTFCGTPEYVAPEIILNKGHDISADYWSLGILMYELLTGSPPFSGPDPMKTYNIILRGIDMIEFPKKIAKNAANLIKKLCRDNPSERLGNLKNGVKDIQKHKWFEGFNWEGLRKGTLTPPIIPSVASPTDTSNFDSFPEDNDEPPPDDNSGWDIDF
UniProt P15056, sequence (whole entry, unmodified, looked up): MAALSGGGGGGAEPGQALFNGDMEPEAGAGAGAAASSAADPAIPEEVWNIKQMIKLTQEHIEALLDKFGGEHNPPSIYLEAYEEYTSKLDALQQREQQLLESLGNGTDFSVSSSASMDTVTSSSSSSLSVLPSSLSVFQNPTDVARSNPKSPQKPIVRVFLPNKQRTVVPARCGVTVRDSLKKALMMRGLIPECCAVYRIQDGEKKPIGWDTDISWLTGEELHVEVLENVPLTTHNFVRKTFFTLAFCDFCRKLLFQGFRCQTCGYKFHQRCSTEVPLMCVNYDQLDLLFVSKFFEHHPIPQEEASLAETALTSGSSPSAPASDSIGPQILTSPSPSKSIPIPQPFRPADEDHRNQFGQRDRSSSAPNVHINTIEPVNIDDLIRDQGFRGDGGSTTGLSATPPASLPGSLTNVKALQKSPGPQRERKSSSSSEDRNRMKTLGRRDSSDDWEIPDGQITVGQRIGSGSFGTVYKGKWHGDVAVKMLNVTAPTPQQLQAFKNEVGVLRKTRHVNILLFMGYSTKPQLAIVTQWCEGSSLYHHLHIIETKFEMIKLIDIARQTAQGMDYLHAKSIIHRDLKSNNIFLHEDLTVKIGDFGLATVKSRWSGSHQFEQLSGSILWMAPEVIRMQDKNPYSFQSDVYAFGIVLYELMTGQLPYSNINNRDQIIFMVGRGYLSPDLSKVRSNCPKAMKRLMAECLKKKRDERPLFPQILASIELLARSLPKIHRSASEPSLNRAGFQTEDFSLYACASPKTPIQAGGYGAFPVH
UniProt Q16288, sequence (whole entry, looked up): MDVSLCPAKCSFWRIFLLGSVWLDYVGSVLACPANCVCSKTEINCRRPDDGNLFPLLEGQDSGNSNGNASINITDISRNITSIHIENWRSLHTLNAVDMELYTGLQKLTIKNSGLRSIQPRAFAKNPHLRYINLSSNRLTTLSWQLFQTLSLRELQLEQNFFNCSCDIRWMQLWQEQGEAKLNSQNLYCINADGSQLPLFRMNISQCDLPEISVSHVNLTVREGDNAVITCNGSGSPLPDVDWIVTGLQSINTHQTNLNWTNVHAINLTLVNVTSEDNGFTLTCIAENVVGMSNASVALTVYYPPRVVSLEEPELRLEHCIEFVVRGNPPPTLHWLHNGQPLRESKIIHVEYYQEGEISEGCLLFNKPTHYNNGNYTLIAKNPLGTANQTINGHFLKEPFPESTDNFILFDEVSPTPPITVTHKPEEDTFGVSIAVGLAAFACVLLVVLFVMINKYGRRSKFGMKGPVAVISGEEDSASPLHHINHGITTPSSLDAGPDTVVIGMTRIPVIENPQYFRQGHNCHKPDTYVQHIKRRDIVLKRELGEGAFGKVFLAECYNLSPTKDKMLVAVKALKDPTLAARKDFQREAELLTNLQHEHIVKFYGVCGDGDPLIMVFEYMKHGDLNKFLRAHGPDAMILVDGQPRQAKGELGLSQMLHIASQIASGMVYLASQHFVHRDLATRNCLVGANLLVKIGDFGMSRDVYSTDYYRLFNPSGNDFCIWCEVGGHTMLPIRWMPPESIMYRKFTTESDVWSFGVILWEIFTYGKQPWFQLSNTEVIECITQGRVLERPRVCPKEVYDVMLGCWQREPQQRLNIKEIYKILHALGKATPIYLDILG
UniProt P78368, sequence (whole entry, looked up): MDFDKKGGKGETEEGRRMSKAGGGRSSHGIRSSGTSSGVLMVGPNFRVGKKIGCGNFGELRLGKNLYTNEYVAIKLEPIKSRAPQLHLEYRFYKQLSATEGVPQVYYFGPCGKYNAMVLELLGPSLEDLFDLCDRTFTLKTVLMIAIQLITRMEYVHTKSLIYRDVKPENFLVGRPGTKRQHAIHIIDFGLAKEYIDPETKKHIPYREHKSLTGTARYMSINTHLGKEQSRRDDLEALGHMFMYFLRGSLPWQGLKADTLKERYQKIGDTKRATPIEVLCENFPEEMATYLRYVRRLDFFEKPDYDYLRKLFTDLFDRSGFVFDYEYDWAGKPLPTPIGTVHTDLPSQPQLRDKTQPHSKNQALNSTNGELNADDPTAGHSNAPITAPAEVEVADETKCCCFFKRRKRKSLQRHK

Block 1
SMILES: O=Nc1c(-c2c(O)[nH]c3cc(Br)ccc23)[nH]c2ccccc12
Read-out: enzyme activity
Mode: inhibitor
Concentration: 0.5 µM
Baseline: control
Endpoint: remaining activity
target = MAP2K6 (Homo sapiens, UniProt P52564); value = 98.2%
target = MAPK13 (Homo sapiens, UniProt O15264); value = 87.5%
target = LRRK2 (Homo sapiens, UniProt Q5S007); value = 95.3%
target = NEK4 (Homo sapiens, UniProt P51957); value = 96.7%
target = PRKCI (Homo sapiens, UniProt P41743); value = 97.3%
target = IRAK4 (Homo sapiens, UniProt Q9NWZ3); value = 90.1%
target = PRKG1 (Homo sapiens, UniProt Q13976); value = 89%
target = EPHA5 (Homo sapiens, UniProt P54756); value = 70.4%
target = LYN (Homo sapiens, UniProt P07948); value = 5.98%
target = CSNK2A1 (Homo sapiens, UniProt P68400); value = 82.2%
target = BTK (Homo sapiens, UniProt Q06187); value = 13.1%
target = PLK2 (Homo sapiens, UniProt Q9NYY3); value = 98.9%
target = AKT3 (Homo sapiens, UniProt Q9Y243); value = 89.4%
target = WNK2 (Homo sapiens, UniProt Q9Y3S1); value = 104%
target = Cyclin-dependent kinase 9, with cyclin T1 (CDK9, Homo sapiens, UniProt P50750); value = 68.2%
target = PRKCD (Homo sapiens, UniProt Q05655); value = 103%
target = MAP4K2 (Homo sapiens, UniProt Q12851); value = 61.5%
target = KIT (Homo sapiens, UniProt P10721); value = 42.3%
target = MAPK12 (Homo sapiens, UniProt P53778); value = 93.8%
target = CHEK1 (Homo sapiens, UniProt O14757); value = 57.1%
target = MAP3K10 (Homo sapiens, UniProt Q02779); value = 92.1%
target = MKNK2 (Homo sapiens, UniProt Q9HBH9); value = 75.3%

Block 2
Structure (SMILES): Cc1sc(C(=O)NC2COC2)cc1-n1cc(NC(=O)Nc2c(F)cccc2Cl)cn1
Read-out: enzyme activity
Concentration: 10 µM
Baseline: untreated control
Endpoint: remaining activity
target = Cyclin-dependent kinase 18, with cyclin Y (CDK18, Homo sapiens, UniProt Q07002); value = 118%
target = CDK7 (Homo sapiens, UniProt P50613); value = 102%
target = HCK (Homo sapiens, UniProt P08631); value = 92.5%
target = PRKD3 (Homo sapiens, UniProt O94806); value = 102%
target = GSK3A (Homo sapiens, UniProt P49840); value = 128%
target = CLK4 (Homo sapiens, UniProt Q9HAZ1); value = 101%
target = KSR1 (Homo sapiens, UniProt Q8IVT5); value = 103%
target = IKBKE (Homo sapiens, UniProt Q14164); value = 115%
target = NTRK3 (Homo sapiens, UniProt Q16288); value = 85.1%
target = FGFR2 (Homo sapiens, UniProt P21802); value = 106%
target = MAPK8 (Homo sapiens, UniProt P45983); value = 74.2%
target = TLK1 (Homo sapiens, UniProt Q9UKI8); value = 103%
target = STK10 (Homo sapiens, UniProt O94804); value = 95.8%
target = PAK2 (Homo sapiens, UniProt Q13177); value = 104%
target = TNK2 (Homo sapiens, UniProt Q07912); value = 98.5%
target = CSNK1G2 (Homo sapiens, UniProt P78368); value = 99.1%
target = CHUK (Homo sapiens, UniProt O15111); value = 93.7%
target = EPHA7 (Homo sapiens, UniProt Q15375); value = 95.9%
target = MAPK13 (Homo sapiens, UniProt O15264); value = 85.7%

Block 3
SMILES: CCCCN(CCCC)C(=O)CN1C[C@@H](c2cc(OC)c3c(c2)OCO3)[C@H](C(=O)O)[C@H]1CC(C)(C)CCC
Read-out: cell-free assay
Technique: competition with immobilised ligand
Concentration: 1 µM
Endpoint: remaining binding
target = LRRK2 (Homo sapiens, UniProt Q5S007, G2019S); value = 100%
target = PRKG1 (Homo sapiens, UniProt Q13976); value = 100%
target = PRKAA2 (Homo sapiens, UniProt P54646); value = 92.6%
target = Insulin receptor (INSR, Homo sapiens, UniProt P06213); value = 89%
target = NTRK3 (Homo sapiens, UniProt Q16288); value = 87.6%
target = CAMK4 (Homo sapiens, UniProt Q16566); value = 100%
target = TESK1 (Homo sapiens, UniProt Q15569); value = 94.3%
target = BRAF (Homo sapiens, UniProt P15056); value = 92.3%
target = PIK3CD (Homo sapiens, UniProt O00329); value = 87%
target = CLK3 (Homo sapiens, UniProt P49761); value = 100%
target = BRAF (Homo sapiens, UniProt P15056, V600E); value = 100%
target = HUNK (Homo sapiens, UniProt P57058); value = 96.8%
target = Tyrosine-protein kinase ABL1, non-phosphorylated (ABL1, Homo sapiens, UniProt P00519, F317L); value = 100%
target = WNK3 (Homo sapiens, UniProt Q9BYP7); value = 65.5%
target = CAMK1G (Homo sapiens, UniProt Q96NX5); value = 100%
target = KIT (Homo sapiens, UniProt P10721, D816V); value = 95.8%
target = MAP2K1 (Homo sapiens, UniProt Q02750); value = 100%
target = NLK (Homo sapiens, UniProt Q9UBE8); value = 100%
target = BRSK2 (Homo sapiens, UniProt Q8IWQ3); value = 98.3%
target = CSNK1G2 (Homo sapiens, UniProt P78368); value = 96.3%
target = SGK3 (Homo sapiens, UniProt Q96BR1); value = 100%
target = ERBB3 (Homo sapiens, UniProt P21860); value = 100%
target = MYLK4 (Homo sapiens, UniProt Q86YV6); value = 100%

Block 4
SMILES: C=CCc1ccc(O)c(-c2ccc(O)c(CC=C)c2)c1
Endpoint: normalized current
ANO1 del476-501: Anoctamin-1 (ANO1, Homo sapiens, UniProt Q5XXA6, del476-501)
UniProt Q5XXA6, sequence (whole entry, unmodified, looked up): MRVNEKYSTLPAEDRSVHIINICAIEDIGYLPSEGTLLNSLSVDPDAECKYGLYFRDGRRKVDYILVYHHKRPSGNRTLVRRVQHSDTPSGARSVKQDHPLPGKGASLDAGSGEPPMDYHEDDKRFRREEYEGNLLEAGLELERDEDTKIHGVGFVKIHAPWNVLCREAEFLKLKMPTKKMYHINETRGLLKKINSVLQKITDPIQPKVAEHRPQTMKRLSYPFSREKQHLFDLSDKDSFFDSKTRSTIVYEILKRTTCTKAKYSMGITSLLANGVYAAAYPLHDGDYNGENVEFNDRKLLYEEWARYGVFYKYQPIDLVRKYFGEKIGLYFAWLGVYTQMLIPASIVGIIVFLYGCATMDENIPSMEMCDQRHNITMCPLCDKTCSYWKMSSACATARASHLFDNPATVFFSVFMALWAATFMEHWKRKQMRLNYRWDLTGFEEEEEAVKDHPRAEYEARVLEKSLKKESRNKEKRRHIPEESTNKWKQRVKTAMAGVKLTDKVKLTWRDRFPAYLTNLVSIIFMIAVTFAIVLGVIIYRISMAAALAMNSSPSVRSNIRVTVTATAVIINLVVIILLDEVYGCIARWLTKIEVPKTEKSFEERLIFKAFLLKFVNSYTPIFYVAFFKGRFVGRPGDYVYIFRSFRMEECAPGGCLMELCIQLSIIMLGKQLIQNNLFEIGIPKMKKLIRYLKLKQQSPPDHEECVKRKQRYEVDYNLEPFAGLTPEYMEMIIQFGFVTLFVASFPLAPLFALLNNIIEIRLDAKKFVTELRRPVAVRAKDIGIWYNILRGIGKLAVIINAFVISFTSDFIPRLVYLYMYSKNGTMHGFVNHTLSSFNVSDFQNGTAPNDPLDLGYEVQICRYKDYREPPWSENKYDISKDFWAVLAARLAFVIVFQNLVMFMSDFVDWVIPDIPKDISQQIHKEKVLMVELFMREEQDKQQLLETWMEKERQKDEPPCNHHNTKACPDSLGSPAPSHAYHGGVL
ANO1 del476-501/R541A: Anoctamin-1 (ANO1, Homo sapiens, UniProt Q5XXA6, del476-501/R541A)
ANO1 del476-501/F628A: Anoctamin-1 (ANO1, Homo sapiens, UniProt Q5XXA6, del476-501/F628A)
target = ANO1 del476-501; read-out = chloride current; technique = whole-cell voltage clamp; concentration = 10 µM; setting = wild type, concentration-response at -100 mV; with = 4 µM Ca2+; value = -0.244
target = ANO1 del476-501/R541A; read-out = chloride current; technique = inside-out patch clamp; concentration = 10 µM; setting = membrane voltage 0 mV; value = -0.0057
target = ANO1 del476-501; read-out = chloride current; technique = whole-cell voltage clamp; concentration = 1 µM; setting = wild type, I-V at 80 mV; with = 4 µM Ca2+; value = 0.723
target = ANO1 del476-501/F628A; read-out = chloride current; technique = whole-cell voltage clamp; concentration = 3 µM; setting = I-V at -60 mV; with = 4 µM Ca2+; value = -0.46
target = ANO1 del476-501; read-out = chloride current; technique = whole-cell voltage clamp; concentration = 1 µM; setting = wild type, I-V at 100 mV; with = 4 µM Ca2+; value = 0.974
target = ANO1 del476-501; read-out = chloride current; technique = whole-cell voltage clamp; concentration = 3 µM; setting = wild type, I-V at 60 mV; with = 4 µM Ca2+; value = 0.477
target = ANO1 del476-501; read-out = chloride current; technique = whole-cell voltage clamp; concentration = 10 µM; setting = wild type, concentration-response at 40 mV; with = 4 µM Ca2+; value = 0.108
target = Anoctamin-1 (ANO1, Homo sapiens, UniProt Q5XXA6, del476-501/E649A); read-out = ion current; technique = inside-out patch clamp; concentration = 10 µM; setting = E623A mutant at -40 mV; value = -0.282
target = ANO1 del476-501/F628A; read-out = chloride current; technique = whole-cell voltage clamp; concentration = 1 µM; setting = concentration-response at -80 mV; with = 4 µM Ca2+; value = -0.694
target = ANO1 del476-501; read-out = chloride current; technique = whole-cell voltage clamp; concentration = 1 µM; setting = wild type, concentration-response at -80 mV; with = 4 µM Ca2+; value = -0.637
target = ANO1 del476-501/F628A; read-out = chloride current; technique = whole-cell voltage clamp; concentration = 30 µM; setting = I-V at 0 mV; with = 4 µM Ca2+; value = -0.0028
target = ANO1 del476-501/F628A; read-out = chloride current; technique = whole-cell voltage clamp; concentration = 3 µM; setting = concentration-response at -80 mV; with = 4 µM Ca2+; value = -0.652
target = ANO1 del476-501/R541A; read-out = chloride current; technique = inside-out patch clamp; concentration = 10 µM; setting = membrane voltage 20 mV; value = 0.118
target = ANO1 del476-501/R541A; read-out = chloride current; technique = inside-out patch clamp; concentration = 10 µM; setting = membrane voltage -40 mV; value = -0.243
